Published values gathered from unrelated publications.
Protocols differ between the studies behind these lines. Numbers after ± are the reported error.

CC[C@@H]1C(=O)N(C)c2cnc(Nc3ccc(C(=O)NC4CCN(C)CC4)cc3OC)nc2N1C1CCCC1  recovery (Caco-2 monolayer; 10 µM, 2 h): 58.2%
N#C[C@@]1(c2ccc3c(N)ncnn23)O[C@H](CO)[C@@H](O)[C@H]1O  recovery (plasma protein binding; human plasma; 1 µM, time not given): 95.8%
O=C1CC[C@H](N2Cc3cc(N4CCN(CC5CCN(c6ccc([C@@H]7c8ccc(O)cc8CC[C@@H]7c7ccccc7)cc6)CC5)CC4)ccc3C2=O)C(=O)N1  recovery (rapid equilibrium dialysis; human liver microsomes; 2.5 µM, 6 h): 106%
CC(=O)N[C@H]1[C@H]([C@H](O)[C@H](O)CO)OC(C(=O)O)=C[C@@H]1N=C(N)N  recovery (HPLC; HBSS; 10 µg/mL, 36 h, room temperature, short-term stability): 101%
CC(=O)N1CCN(c2ccc(OCC3COC(Cn4ccnc4)(c4ccc(Cl)cc4Cl)O3)cc2)CC1 (stereo not drawn)  recovery (equilibrium dialysis; mouse plasma; 1 µM, 6 h): 93.2%
CC(C)(C)c1ccc(O)c(CN(Cc2cc(C(C)(C)C)ccc2O)C2CCC(NC(N)=O)CC2)c1 (stereo not drawn)  recovery (mouse plasma; 2000 ng/mL, 3 months, -20 °C, long-term storage): 98.23 ± 0.87%
C=CC(=O)Nc1cc(Nc2nccc(-c3cn(C)c4ccccc34)n2)c(OC)cc1N(C)CCN(C)C  recovery (storage stability; human plasma; 24 h, on ice, high QC level): 82.8%
C=CC(=O)Nc1cc(Nc2nccc(-c3cn(C)c4ccccc34)n2)c(OCC(F)(F)F)nc1N(C)CCN(C)C  recovery (rapid equilibrium dialysis; human plasma; 0.2 µg/mL, time not given): 78.5%
CN(Cc1cnc2nc(N)nc(N)c2n1)c1ccc(C(=O)N[C@@H](CCC(=O)O)C(=O)O)cc1  recovery (lipid PAMPA; artificial lipid membrane; 10 µM, 16 h): < 101%

A few entries again:
N#C[C@@]1(c2ccc3c(N)ncnn23)O[C@H](CO)[C@@H](O)[C@H]1O  recovery (plasma protein binding; human plasma; 1 µM, time not given): 95.8%
